Results from different studies.
A part holds a random share of what one study measured.

Sample 1 — method: protein binding microarray; form: double-stranded DNA, one strand shown; matrix: in vitro; concentration: not given; relative to: not given; direction: higher = stronger binding
Target: Histone acetyltransferase KAT6A, winged helix 2, GST fusion (KAT6A, Homo sapiens, UniProt Q92794, residues 85-181)
Setting: 8-mer, flanks averaged, mean of 2 arrays, mostly near background
Residues (chain): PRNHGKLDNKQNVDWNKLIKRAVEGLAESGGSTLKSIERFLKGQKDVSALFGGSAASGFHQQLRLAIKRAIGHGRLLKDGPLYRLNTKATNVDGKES
Strand	E-score
CTACCCGA	0.0774
TAACCTGA	-0.126
CCTGATTC	-0.0493
TCTCAACA	-0.00127

Sample 2 — method: universal PBM; form: double-stranded DNA, one strand shown; matrix: in vitro; concentration: not given; direction: higher = stronger binding
Target: Sal-like protein 4, full length isoform B (SALL4, Homo sapiens, UniProt Q9UJQ4-2, residues 1-616)
Setting: 8-mer, flanks averaged, mean of replicates
Strand	E-score
ACTAGTAG	0.157
GCCTCTAA	-0.121
TCCAACCA	-0.0544
AAGTGGAA	0.18

Further values, each from its own experiment
UNK zinc fingers 1-6, GST-SBP tag: RING finger protein unkempt homolog, zinc fingers 1-6, GST-SBP tag (UNK, Homo sapiens, UniProt Q9C0B0, residues 30-357)
UniProt Q9C0B0, sequence (30-357, looked up): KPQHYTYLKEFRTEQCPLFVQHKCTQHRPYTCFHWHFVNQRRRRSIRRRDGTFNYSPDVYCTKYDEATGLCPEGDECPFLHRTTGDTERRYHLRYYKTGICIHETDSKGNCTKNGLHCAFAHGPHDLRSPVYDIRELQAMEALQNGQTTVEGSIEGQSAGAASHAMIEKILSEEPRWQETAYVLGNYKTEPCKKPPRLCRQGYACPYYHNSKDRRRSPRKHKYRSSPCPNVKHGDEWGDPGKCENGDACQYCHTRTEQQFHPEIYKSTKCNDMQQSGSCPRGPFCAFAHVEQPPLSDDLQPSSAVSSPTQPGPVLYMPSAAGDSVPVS
Molecule	target	test	test system	setting	how to read	quantity	result
GGGAGUUCUACAGUCCGACGAUCCAUUUGUGGUGUCCCGUCAAUCCCUGAAGGCAUAGAUUAUCUGAAACUACUUUUAAUCAGGAAGAUUUCAUAUCUUGAUACAGAUCAACUAUUCUGUUUGUUUUUCUGAAAUGAAAAGCACAACAGAGGAUUGAGCAUCA	UNK zinc fingers 1-6, GST-SBP tag	RNA Bind-n-Seq	RNA, in vitro	not given, RNA with constant flanks, human and mouse sites, ends assumed	relative to: input RNA pool, higher = stronger binding	bound/input enrichment	0.379 ratio
PhoQ, residues 284 288 289 292 302 303 SIHLQL	PhoP, residues 12 14 15 18 19 NFCKL (Escherichia coli, UniProt P23836)	Sort-seq, refers to: YFP reporter	E. coli	PhoQ-PhoP variant library, together with: 10 µM Mg2+	relative to: high Mg2+ state, higher = stronger signaling	fold induction	13.2
GGGAGUUCUACAGUCCGACGAUCUGGUAUCUCUUCUUAGUGUUCUAUUUAUCUUAUUUGCUAAUGAGAACAAUUCUUCUUCUGUUAGGCUGUGCUUUAUUGAUAAAACCAAGUAUUGAAUAAAGAGAGUUAAUUAUCUUUUUACAACAGAGGAUUGAGCAUCA	UNK zinc fingers 1-6, GST-SBP tag	RNA Bind-n-Seq	RNA, in vitro	not given, RNA with constant flanks, human and mouse sites, ends assumed	relative to: input RNA pool, higher = stronger binding	bound/input enrichment	1.52 ratio

Repeated from above (sample 1):
Strand	E-score
TAACCTGA	-0.126
CTACCCGA	0.0774
